Published values pooled from the literature.
Each numbered part is a random draw from the data of one study; scales do not carry over between parts. Positions count from the first letter of the parent shown.
Sequence of UniProt P10721 (whole entry, unmodified, looked up): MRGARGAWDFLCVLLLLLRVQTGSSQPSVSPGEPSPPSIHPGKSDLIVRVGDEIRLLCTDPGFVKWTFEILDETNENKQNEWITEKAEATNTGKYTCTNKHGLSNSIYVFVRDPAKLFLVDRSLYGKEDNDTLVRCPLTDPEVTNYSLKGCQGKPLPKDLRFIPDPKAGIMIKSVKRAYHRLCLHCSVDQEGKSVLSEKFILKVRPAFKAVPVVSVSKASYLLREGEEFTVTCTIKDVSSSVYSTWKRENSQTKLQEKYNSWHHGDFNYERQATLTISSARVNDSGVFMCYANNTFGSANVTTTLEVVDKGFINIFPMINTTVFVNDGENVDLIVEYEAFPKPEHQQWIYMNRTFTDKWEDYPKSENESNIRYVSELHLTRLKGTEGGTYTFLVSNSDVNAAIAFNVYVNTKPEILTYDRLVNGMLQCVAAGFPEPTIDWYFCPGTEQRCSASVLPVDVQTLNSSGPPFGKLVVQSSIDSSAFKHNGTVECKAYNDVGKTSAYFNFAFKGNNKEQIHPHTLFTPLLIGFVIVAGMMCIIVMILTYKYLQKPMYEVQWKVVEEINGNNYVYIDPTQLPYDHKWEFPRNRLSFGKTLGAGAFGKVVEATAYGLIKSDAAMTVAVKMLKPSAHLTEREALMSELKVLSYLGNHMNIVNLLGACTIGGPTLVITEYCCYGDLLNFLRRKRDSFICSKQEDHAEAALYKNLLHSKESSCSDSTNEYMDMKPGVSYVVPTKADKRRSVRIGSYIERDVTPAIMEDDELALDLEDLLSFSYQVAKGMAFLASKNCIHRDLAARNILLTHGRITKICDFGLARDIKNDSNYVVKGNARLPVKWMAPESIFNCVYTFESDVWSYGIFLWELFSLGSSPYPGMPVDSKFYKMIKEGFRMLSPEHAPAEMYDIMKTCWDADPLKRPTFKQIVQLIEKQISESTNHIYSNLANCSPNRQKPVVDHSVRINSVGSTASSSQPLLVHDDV
Sequence of UniProt Q13188 (whole entry, looked up): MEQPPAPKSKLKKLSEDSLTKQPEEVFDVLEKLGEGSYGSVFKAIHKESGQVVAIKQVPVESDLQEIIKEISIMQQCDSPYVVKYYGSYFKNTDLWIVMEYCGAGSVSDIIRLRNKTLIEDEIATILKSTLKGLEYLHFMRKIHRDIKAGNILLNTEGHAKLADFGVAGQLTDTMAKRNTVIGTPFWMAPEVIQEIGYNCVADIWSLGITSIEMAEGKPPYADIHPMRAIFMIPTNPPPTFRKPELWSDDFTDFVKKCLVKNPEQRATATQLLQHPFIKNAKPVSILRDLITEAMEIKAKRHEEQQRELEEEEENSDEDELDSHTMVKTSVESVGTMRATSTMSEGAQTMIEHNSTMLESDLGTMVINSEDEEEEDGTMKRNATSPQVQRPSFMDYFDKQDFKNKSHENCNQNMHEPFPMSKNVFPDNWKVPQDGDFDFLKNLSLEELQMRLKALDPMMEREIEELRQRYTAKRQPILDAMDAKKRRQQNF
Sequence of UniProt P54756 (whole entry, looked up): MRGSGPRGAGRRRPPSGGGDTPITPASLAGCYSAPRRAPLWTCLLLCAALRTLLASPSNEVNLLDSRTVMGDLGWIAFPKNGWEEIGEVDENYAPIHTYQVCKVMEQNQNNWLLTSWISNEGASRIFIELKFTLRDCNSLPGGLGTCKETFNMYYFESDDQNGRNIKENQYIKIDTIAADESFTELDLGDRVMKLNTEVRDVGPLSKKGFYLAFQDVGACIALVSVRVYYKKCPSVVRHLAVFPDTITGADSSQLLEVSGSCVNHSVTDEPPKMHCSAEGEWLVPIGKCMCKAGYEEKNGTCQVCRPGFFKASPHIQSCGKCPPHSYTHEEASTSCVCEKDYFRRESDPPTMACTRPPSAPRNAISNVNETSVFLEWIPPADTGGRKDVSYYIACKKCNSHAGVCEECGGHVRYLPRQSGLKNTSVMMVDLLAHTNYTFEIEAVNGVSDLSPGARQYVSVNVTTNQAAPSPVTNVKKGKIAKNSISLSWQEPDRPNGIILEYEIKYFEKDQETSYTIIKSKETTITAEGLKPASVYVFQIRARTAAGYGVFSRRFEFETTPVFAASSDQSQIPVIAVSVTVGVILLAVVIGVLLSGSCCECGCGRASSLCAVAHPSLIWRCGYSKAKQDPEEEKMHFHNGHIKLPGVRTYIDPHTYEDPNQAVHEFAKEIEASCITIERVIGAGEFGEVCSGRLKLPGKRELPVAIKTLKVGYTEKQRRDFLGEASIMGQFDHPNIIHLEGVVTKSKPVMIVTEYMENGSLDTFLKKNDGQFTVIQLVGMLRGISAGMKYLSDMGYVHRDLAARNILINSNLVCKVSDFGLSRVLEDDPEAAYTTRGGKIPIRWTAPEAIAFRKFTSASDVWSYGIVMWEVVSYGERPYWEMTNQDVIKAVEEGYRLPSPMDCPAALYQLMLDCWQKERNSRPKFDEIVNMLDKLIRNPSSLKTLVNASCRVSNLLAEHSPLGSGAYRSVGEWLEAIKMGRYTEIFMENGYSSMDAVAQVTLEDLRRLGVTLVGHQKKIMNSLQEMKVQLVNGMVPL
Sequence of UniProt Q13976 (whole entry, looked up): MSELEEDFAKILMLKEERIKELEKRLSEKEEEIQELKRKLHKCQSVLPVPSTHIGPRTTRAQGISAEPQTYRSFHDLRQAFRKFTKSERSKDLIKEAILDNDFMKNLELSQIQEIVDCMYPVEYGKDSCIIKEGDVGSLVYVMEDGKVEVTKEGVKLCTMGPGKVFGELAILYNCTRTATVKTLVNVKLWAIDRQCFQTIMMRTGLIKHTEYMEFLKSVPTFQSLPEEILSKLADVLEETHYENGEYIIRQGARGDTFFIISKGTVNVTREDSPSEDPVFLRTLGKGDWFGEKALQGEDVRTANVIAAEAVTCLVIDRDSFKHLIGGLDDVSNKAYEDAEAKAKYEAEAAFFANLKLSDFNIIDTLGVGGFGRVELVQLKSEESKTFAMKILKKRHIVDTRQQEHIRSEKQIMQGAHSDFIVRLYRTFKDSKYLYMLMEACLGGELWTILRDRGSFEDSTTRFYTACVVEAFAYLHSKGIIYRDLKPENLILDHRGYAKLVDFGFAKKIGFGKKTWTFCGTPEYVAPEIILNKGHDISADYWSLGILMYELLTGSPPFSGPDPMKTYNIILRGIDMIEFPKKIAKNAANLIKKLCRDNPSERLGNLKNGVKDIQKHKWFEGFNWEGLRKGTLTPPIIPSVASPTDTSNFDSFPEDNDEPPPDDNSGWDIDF
Sequence of UniProt P51957 (whole entry, looked up): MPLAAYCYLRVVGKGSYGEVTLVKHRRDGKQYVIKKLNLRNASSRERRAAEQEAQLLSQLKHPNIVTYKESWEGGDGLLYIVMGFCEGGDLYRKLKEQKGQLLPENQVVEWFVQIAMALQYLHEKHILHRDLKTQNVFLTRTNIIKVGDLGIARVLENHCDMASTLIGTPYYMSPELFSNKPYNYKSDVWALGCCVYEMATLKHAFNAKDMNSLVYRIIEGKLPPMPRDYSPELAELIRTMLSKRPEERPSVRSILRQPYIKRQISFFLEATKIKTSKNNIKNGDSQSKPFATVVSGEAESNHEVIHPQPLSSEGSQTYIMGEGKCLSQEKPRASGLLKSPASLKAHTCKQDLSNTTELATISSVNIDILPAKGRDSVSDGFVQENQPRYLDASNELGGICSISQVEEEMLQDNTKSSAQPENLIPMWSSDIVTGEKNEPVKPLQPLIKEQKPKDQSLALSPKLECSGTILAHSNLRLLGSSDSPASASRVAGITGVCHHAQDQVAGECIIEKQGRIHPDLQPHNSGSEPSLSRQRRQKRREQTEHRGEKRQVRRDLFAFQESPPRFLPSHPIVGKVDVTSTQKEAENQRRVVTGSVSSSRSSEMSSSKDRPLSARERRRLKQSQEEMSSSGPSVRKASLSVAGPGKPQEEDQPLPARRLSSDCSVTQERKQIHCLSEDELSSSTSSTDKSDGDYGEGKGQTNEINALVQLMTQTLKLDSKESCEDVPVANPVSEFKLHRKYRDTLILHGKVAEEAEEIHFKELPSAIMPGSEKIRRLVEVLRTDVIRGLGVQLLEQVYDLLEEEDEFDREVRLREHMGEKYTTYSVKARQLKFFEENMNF
Sequence of UniProt Q13470 (whole entry, looked up): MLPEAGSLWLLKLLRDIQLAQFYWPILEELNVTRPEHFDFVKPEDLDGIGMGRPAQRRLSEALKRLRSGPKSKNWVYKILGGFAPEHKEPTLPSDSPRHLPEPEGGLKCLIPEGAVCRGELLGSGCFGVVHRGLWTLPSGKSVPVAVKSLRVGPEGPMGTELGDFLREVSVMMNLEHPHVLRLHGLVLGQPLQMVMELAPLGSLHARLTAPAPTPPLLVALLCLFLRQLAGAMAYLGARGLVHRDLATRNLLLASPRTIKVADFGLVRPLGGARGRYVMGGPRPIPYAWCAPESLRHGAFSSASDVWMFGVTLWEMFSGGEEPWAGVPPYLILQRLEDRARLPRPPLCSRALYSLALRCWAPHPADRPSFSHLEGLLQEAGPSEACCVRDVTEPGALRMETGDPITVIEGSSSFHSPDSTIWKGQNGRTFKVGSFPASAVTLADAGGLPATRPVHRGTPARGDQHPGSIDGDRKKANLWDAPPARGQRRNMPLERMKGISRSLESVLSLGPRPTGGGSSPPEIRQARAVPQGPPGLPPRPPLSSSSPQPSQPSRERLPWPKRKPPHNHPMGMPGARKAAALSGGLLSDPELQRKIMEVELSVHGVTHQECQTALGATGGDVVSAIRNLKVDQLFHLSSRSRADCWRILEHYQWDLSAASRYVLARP
Sequence of UniProt P50750 (whole entry, looked up): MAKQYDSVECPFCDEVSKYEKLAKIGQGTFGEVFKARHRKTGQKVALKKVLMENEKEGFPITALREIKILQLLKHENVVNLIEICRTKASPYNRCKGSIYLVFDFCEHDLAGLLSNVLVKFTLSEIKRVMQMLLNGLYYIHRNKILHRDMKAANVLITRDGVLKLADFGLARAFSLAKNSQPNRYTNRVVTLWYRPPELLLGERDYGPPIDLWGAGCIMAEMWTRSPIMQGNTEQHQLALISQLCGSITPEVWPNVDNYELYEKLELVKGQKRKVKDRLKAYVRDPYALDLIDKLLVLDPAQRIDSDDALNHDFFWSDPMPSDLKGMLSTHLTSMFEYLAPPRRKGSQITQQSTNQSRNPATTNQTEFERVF

Series 1 — technique: RNAcompete; molecule type: RNA; sample: in vitro; concentration: 20 nM; notes: 7-mer, probes averaged, single round; baseline: mean of 7-mers; reading: higher = stronger binding
Target: PABPC1L2, full length, GST fusion (mouse, UniProt A0ABA7IW68)
Construct (chain): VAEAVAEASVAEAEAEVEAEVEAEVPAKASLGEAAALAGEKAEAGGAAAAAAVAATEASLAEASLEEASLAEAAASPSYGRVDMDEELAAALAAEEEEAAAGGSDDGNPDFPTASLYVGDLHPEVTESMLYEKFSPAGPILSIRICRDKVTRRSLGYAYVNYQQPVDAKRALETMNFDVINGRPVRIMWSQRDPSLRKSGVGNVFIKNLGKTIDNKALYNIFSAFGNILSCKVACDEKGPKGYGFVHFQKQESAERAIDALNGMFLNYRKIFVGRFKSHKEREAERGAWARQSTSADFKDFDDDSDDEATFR
Sequence	7-mer Z-score
AAUUAAG	0.321
AGGAACC	0.0551
GGUCGGC	0.0207
CCGUGUA	-0.26
CCCACUA	-0.233
ACGCGUA	-0.05
CCAUUCG	-0.211
UCAUUUA	0.166

Series 2 — effect on: cell-free assay; technique: competition with immobilised ligand; concentration: 1 µM
SMILES: O=C(NC[C@@H]1[C@H]2CN(C(=O)OCc3cc(C(F)(F)F)cc(C(F)(F)F)c3)C[C@@H]12)c1ccc2[nH]nnc2c1
target	remaining binding [%]
Epidermal growth factor receptor (EGFR, Homo sapiens, UniProt P00533, G719S)	100
Citron Rho-interacting kinase (CIT, Homo sapiens, UniProt O14578)	100
Hepatocyte growth factor receptor (MET, Homo sapiens, UniProt P08581)	100
cGMP-dependent protein kinase 1 (PRKG1, Homo sapiens, UniProt Q13976)	83
Fibroblast growth factor receptor 2 (FGFR2, Homo sapiens, UniProt P21802)	100
Mast/stem cell growth factor receptor Kit (KIT, Homo sapiens, UniProt P10721, V559D/V654A)	99
Non-receptor tyrosine-protein kinase TNK1 (TNK1, Homo sapiens, UniProt Q13470)	94
Dual specificity mitogen-activated protein kinase kinase 7 (MAP2K7, Homo sapiens, UniProt O14733)	95
Serine/threonine-protein kinase PAK 2 (PAK2, Homo sapiens, UniProt Q13177)	100
Protein kinase C delta type (PRKCD, Homo sapiens, UniProt Q05655)	93
Serine/threonine-protein kinase 3 (STK3, Homo sapiens, UniProt Q13188)	87
Ephrin type-A receptor 5 (EPHA5, Homo sapiens, UniProt P54756)	100
Serine/threonine-protein kinase Nek11 (NEK11, Homo sapiens, UniProt Q8NG66)	100
Tyrosine-protein kinase Yes (YES1, Homo sapiens, UniProt P07947)	100
Cyclin-dependent kinase-like 1 (CDKL1, Homo sapiens, UniProt Q00532)	84

Series 3 — technique: DHFR PCA, deep sequencing; sample: yeast; together with: (+)-ABA 0 µM; baseline: wild-type fitted maximum; reading: higher = stronger binding
Target: ABI1, truncated, D143A, DHFR fusion (Arabidopsis thaliana)
Notes: methotrexate growth selection, single substitutions
Starting sequence: PYL1, truncated, DHFR fusion (Arabidopsis thaliana); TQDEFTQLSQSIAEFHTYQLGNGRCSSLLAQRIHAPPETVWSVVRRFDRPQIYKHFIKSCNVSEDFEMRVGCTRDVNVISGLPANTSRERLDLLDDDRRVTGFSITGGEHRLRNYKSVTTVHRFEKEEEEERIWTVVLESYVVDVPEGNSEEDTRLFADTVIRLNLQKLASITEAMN
Variant	relative binding score [%]
D97V	24.3
R88K	31.8
K168A	-12.5
D153L	-1.9
E4N	5.66
E129F	10.7
R88G	-2.33
A175K	20.6

Series 4 — effect on: enzyme activity; mode: inhibitor; concentration: 0.5 µM; baseline: control
SMILES: COc1ccc2c(c1)c(C1=C(c3c[nH]c4ccccc34)C(=O)NC1=O)cn2CCCN(C)C
target	remaining activity
Mast/stem cell growth factor receptor Kit (KIT, Homo sapiens, UniProt P10721)	88.8%
Tyrosine-protein kinase BTK (BTK, Homo sapiens, UniProt Q06187)	90.2%
Protein kinase C iota type (PRKCI, Homo sapiens, UniProt P41743)	67.6%
Serine/threonine-protein kinase Nek4 (NEK4, Homo sapiens, UniProt P51957)	90.7%
Cyclin-dependent kinase 9, with cyclin T1 (CDK9, Homo sapiens, UniProt P50750)	69.7%

Excerpt of the above (series 3):
Variant	relative binding score [%]
D153L	-1.9
E4N	5.66
E129F	10.7
R88G	-2.33
A175K	20.6
